{"data": "Experimental data pooled from the literature", "note": "Compare with care: the assays were run in different laboratories."}
{"SMILES": "CC1(C)SC2C(NC(=O)C(NC(=O)C3=C(O)C(Cc4ccccc4)NC3=O)c3ccccc3)C(=O)N2C1C(=O)O (stereo not drawn)", "organism": "Escherichia coli", "assay": "broth microdilution", "system": "isolate IU, CTX-M-14, TEM-1", "setting": "no clavulanic acid", "MIC": "> 200 µg/mL"}
{"SMILES": "CC[C@H](C)[C@H](NC(=O)[C@H](CCCCN)NC(=O)[C@@H](NC(=O)[C@H](Cc1ccc(O)cc1)NC(=O)[C@H](CCCCN)NC(=O)[C@H](CCCCN)NC(=O)CNC(=O)[C@H](CCCCN)NC(=O)[C@@H](NC(=O)[C@H](C)NC(=O)[C@H](CC(C)C)NC(=O)[C@H](Cc1c[nH]c2ccccc12)NC(=O)CNC(=O)[C@@H](NC(=O)[C@H](Cc1ccccc1)NC(=O)[C@H](CCCCN)NC(=O)[C@H](CC(C)C)NC(=O)[C@H](Cc1ccccc1)NC(=O)[C@H](C)NC(=O)CNC(=O)[C@@H](N)CCSC)C(C)C)[C@@H](C)O)C(C)C)C(=O)N[C@@H](C)C(=O)N[C@@H](Cc1c[nH]c2ccccc12)C(=O)N[C@@H](CC(=O)O)C(=O)N[C@@H](Cc1c[nH]cn1)C(=O)N[C@@H](CCCCN)C(=O)NCC(=O)N[C@H](C(=O)N[C@H](C(=O)N[C@@H](CCSC)C(=O)N[C@@H](CCCCN)C(=O)N[C@@H](Cc1c[nH]c2ccccc12)C(=O)N[C@@H](CC(C)C)C(=O)N[C@@H](CC(N)=O)C(=O)N[C@@H](C)C(=O)NCC(=O)N[C@@H](CCC(N)=O)C(=O)N[C@H](C(=O)N[C@@H](Cc1ccccc1)C(=O)N[C@H](C(=O)N[C@@H](Cc1c[nH]c2ccccc12)C(=O)N[C@H](C(=O)N[C@@H](Cc1ccc(O)cc1)C(=O)N[C@@H](CCC(=O)O)C(=O)N[C@@H](CCC(N)=O)C(=O)N[C@H](C(=O)N[C@@H](CCCCN)C(=O)N[C@@H](CCCCN)C(=O)N[C@@H](CC(C)C)C(=O)N[C@@H](Cc1c[nH]c2ccccc12)C(=O)N[C@H](C(=O)O)[C@@H](C)O)[C@@H](C)CC)C(C)C)[C@@H](C)O)[C@@H](C)O)[C@@H](C)CC)[C@@H](C)O", "organism": "Paenibacillus polymyxa", "assay": "broth microdilution", "setting": "37 °C", "MIC": "10.4 µg/mL"}
{"SMILES": "CO/N=c1\\cc2n(-c3ccc(Cl)cc3)c3ccccc3nc-2cc1Nc1ccc(Cl)cc1", "organism": "Neisseria gonorrhoeae", "assay": "bacterial growth", "system": "700825, streptomycin-resistant", "setting": "24 h", "MIC": "> 30 µM"}
{"SMILES": "CC[C@H](C)[C@H](NC(=O)[C@H](CC(C)C)NC(=O)[C@@H]1CCCN1C(=O)[C@@H](N)CC(C)C)C(=O)N[C@H](C(=O)N[C@@H](Cc1ccccc1)C(=O)N[C@@H](CC(C)C)C(=O)N[C@@H](CCCNC(=N)N)C(=O)N[C@@H](CC(N)=O)C(=O)N[C@@H](CCCNC(=N)N)C(=O)N[C@@H](CC(C)C)C(=O)N[C@@H](CCCCN)C(=O)N[C@@H](Cc1ccc(O)cc1)C(=O)O)[C@@H](C)CC", "organism": "Micrococcus luteus", "system": "NCTC 2665", "MIC": "25 µg/mL"}
{"SMILES": "CC[C@H](C)[C@H](NC(=O)[C@H](CCCNC(=N)N)NC(=O)[C@H](Cc1c[nH]c2ccccc12)NC(=O)[C@H](CCCNC(=N)N)NC(=O)[C@H](Cc1c[nH]c2ccccc12)NC(=O)[C@H](Cc1c[nH]c2ccccc12)NC(=O)[C@H](Cc1c[nH]c2ccccc12)NC(=O)[C@H](CCCNC(=N)N)NC(=O)[C@H](Cc1c[nH]c2ccccc12)NC(=O)[C@@H](N)CCCNC(=N)N)C(N)=O", "organism": "Candida albicans", "assay": "broth microdilution", "system": "CGMCC 2.209, RPMI 1640-MOPS", "setting": "48 h, 30 °C, together with: KCl 4.5 mM", "MIC": "16 µM"}
{"SMILES": "CC1(C)S[C@@H]2[C@H](NC(=O)[C@H](N)c3ccccc3)C(=O)N2[C@H]1C(=O)O", "organism": "Escherichia coli", "assay": "broth microdilution", "system": "ATCC 35218, low-level TEM-1", "setting": "together with: clavulanic acid 6 µg/mL", "MIC": "50 µg/mL"}
{"SMILES": "C[C@@H](O)[C@H]1C(=O)N2C(C(=O)O)=C(SCCN=CN)C[C@H]12", "organism": "Klebsiella pneumoniae", "system": "K3", "setting": "at emergence of KPC-144, together with: ceftazidime-avibactam 4/1", "MIC": "32 µg/mL"}
{"SMILES": "CC1(C)SC2C(NC(=O)C(NC(=O)C3=C(O)CN(c4ccccc4)C3=O)c3ccccc3)C(=O)N2C1C(=O)O (stereo not drawn)", "organism": "Escherichia coli", "assay": "broth microdilution", "system": "isolate IU 356 A, KPC-3, VIM-1, TEM", "setting": "together with: clavulanic acid 6 µg/mL", "MIC": "> 200 µg/mL"}
{"SMILES": "Cc1c2ccncc2c(C)c2c1[nH]c1ccccc12", "organism": "Candidozyma auris", "assay": "inhibitor", "system": "279", "setting": "24 h", "MIC": "128 µg/mL"}
{"SMILES": "CC1NC(=O)C(C(=O)NC(C(=O)NC2C(=O)N3C2SC(C)(C)C3C(=O)O)c2ccccc2)=C1O (stereo not drawn)", "organism": "Escherichia coli", "assay": "broth microdilution", "system": "isolate IU, CTX-M-14, TEM-1", "setting": "together with: clavulanic acid 6 µg/mL", "MIC": "> 200 µg/mL"}
{"SMILES": "CC[C@H](C)[C@H](NC(=O)[C@H](C)NC(=O)[C@H](CCCCN)NC(=O)[C@H](CC(C)C)NC(=O)[C@H](C)NC(=O)[C@@H](NC(=O)[C@H](Cc1c[nH]cn1)NC(=O)[C@H](CC(C)C)NC(=O)[C@@H](NC(=O)[C@@H](NC(=O)[C@H](CCCCN)NC(=O)[C@H](C)NC(=O)[C@H](C)NC(=O)[C@H](CO)NC(=O)[C@H](CCCCN)NC(=O)[C@H](Cc1ccccc1)NC(=O)[C@@H](NC(=O)[C@H](CCCCN)NC(=O)[C@H](CC(C)C)NC(=O)[C@H](Cc1ccccc1)NC(=O)[C@H](CO)NC(=O)[C@H](CCCCN)NC(=O)[C@H](Cc1c[nH]c2ccccc12)NC(=O)[C@H](CCCCN)NC(C)=O)[C@@H](C)O)[C@@H](C)O)C(C)C)[C@@H](C)O)C(=O)N[C@@H](CO)C(=O)N[C@@H](CO)C(N)=O", "organism": "Klebsiella pneumoniae", "system": "ESBL ATCC 700603", "MIC": "8 µg/mL"}
{"SMILES": "CC1(C)SC2C(NC(=O)C(NC(=O)C3=C(O)C4(CC4)NC3=O)c3ccccc3)C(=O)N2C1C(=O)O (stereo not drawn)", "organism": "Escherichia coli", "assay": "broth microdilution", "system": "JW0790-2 fiu deletion mutant", "setting": "ferric iron uptake gene", "MIC": "25 µg/mL"}
{"SMILES": "CC(=O)N1CCN(c2ccc(OCC3COC(Cn4ccnc4)(c4ccc(Cl)cc4Cl)O3)cc2)CC1 (stereo not drawn)", "organism": "Candida albicans", "assay": "broth microdilution", "system": "56467, RPMI 1640-MOPS", "setting": "48 h, 30 °C", "MIC": "> 64 µM"}
{"SMILES": "N=C(N)c1cccc(OCc2ccc(COc3cccc(C(=N)N)c3)cc2)c1", "organism": "Escherichia coli", "system": "BW25113 mcr-1", "setting": "compound alone", "MIC": "> 200 µg/mL"}
{"SMILES": "O/N=c1\\cc2n(-c3ccc(Cl)cc3)c3ccccc3nc-2cc1Nc1ccc(Cl)cc1", "organism": "Neisseria gonorrhoeae", "assay": "bacterial growth", "system": "1130991, multidrug-resistant", "setting": "24 h", "MIC": "0.23 µM"}
{"SMILES": "C[C@H](NC(=O)[C@H](CCCNC(=N)N)NC(=O)[C@H](Cc1c[nH]c2ccccc12)NC(=O)[C@H](CCCNC(=N)N)NC(=O)[C@H](Cc1c[nH]c2ccccc12)NC(=O)[C@H](Cc1c[nH]c2ccccc12)NC(=O)[C@H](Cc1c[nH]c2ccccc12)NC(=O)[C@H](CCCNC(=N)N)NC(=O)[C@H](Cc1c[nH]c2ccccc12)NC(=O)[C@@H](N)CCCNC(=N)N)C(N)=O", "organism": "Candida albicans", "assay": "broth microdilution", "system": "CGMCC 2.209, RPMI 1640-MOPS", "setting": "48 h, 30 °C, together with: NaCl 150 mM", "MIC": "16 µM"}
{"SMILES": "CC(C)C[C@@H](NC(=O)[C@H](C)NC(=O)CNC(=O)[C@@H](NC=O)C(C)C)C(=O)N[C@@H](C)C(=O)N[C@@H](C(=O)N[C@H](C(=O)N[C@@H](C(=O)N[C@@H](Cc1c[nH]c2ccccc12)C(=O)N[C@H](CC(C)C)C(=O)N[C@@H](Cc1ccc2cc[nH]c2c1)C(=O)N[C@H](CC(C)C)C(=O)N[C@@H](Cc1c[nH]c2ccccc12)C(=O)N[C@H](CC(C)C)C(=O)N[C@@H](Cc1c[nH]c2ccccc12)C(=O)NCCO)C(C)C)C(C)C)C(C)C", "organism": "Streptococcus agalactiae", "assay": "broth microdilution", "system": "JCM 5671", "MIC": "2.1 µM"}
{"SMILES": "CC(C)C[C@H](NC(=O)[C@H](CCCNC(=N)N)NC(=O)[C@H](Cc1c[nH]c2ccccc12)NC(=O)[C@H](CCCNC(=N)N)NC(=O)[C@H](Cc1c[nH]c2ccccc12)NC(=O)[C@H](Cc1c[nH]c2ccccc12)NC(=O)[C@H](Cc1c[nH]c2ccccc12)NC(=O)[C@H](CCCNC(=N)N)NC(=O)[C@H](Cc1c[nH]c2ccccc12)NC(=O)[C@H](CCCNC(=N)N)NC(=O)CN)C(N)=O", "organism": "Candida albicans", "system": "CGMCC 2.209", "setting": "no added salts", "MIC": "32 µM"}
{"SMILES": "C[C@H](NC(=O)CO/N=c1\\cc2n(-c3ccc(Cl)cc3)c3ccccc3nc-2cc1Nc1ccc(Cl)cc1)C(=O)OC(C)(C)C", "organism": "Neisseria gonorrhoeae", "assay": "bacterial growth", "system": "700825, streptomycin-resistant", "setting": "24 h", "MIC": "> 30 µM"}
{"SMILES": "CC[C@H](C)[C@H](NC(=O)[C@H](CCCNC(=N)N)NC(=O)[C@H](Cc1c[nH]c2ccccc12)NC(=O)[C@H](CCCNC(=N)N)NC(=O)[C@H](Cc1c[nH]c2ccccc12)NC(=O)[C@H](Cc1c[nH]c2ccccc12)NC(=O)[C@H](Cc1c[nH]c2ccccc12)NC(=O)[C@H](CCCNC(=N)N)NC(=O)[C@H](Cc1c[nH]c2ccccc12)NC(=O)[C@H](CCCNC(=N)N)NC(=O)CN)C(N)=O", "organism": "Candida albicans", "assay": "broth microdilution", "system": "SP3931, RPMI 1640-MOPS", "setting": "48 h, 30 °C", "MIC": "8 µM"}
{"SMILES": "C[C@H](NC(=O)CO/N=c1\\cc2n(-c3ccc(Cl)cc3)c3ccccc3nc-2cc1Nc1ccc(Cl)cc1)C(=O)O", "organism": "Neisseria gonorrhoeae", "assay": "bacterial growth", "system": "700825, streptomycin-resistant", "setting": "24 h", "MIC": "7.5 µM"}
{"note": "Some of these lines once more:"}
{"SMILES": "CC(C)C[C@@H](NC(=O)[C@H](C)NC(=O)CNC(=O)[C@@H](NC=O)C(C)C)C(=O)N[C@@H](C)C(=O)N[C@@H](C(=O)N[C@H](C(=O)N[C@@H](C(=O)N[C@@H](Cc1c[nH]c2ccccc12)C(=O)N[C@H](CC(C)C)C(=O)N[C@@H](Cc1ccc2cc[nH]c2c1)C(=O)N[C@H](CC(C)C)C(=O)N[C@@H](Cc1c[nH]c2ccccc12)C(=O)N[C@H](CC(C)C)C(=O)N[C@@H](Cc1c[nH]c2ccccc12)C(=O)NCCO)C(C)C)C(C)C)C(C)C", "organism": "Streptococcus agalactiae", "assay": "broth microdilution", "system": "JCM 5671", "MIC": "2.1 µM"}
{"SMILES": "C[C@H](NC(=O)CO/N=c1\\cc2n(-c3ccc(Cl)cc3)c3ccccc3nc-2cc1Nc1ccc(Cl)cc1)C(=O)OC(C)(C)C", "organism": "Neisseria gonorrhoeae", "assay": "bacterial growth", "system": "700825, streptomycin-resistant", "setting": "24 h", "MIC": "> 30 µM"}
{"SMILES": "C[C@H](NC(=O)[C@H](CCCNC(=N)N)NC(=O)[C@H](Cc1c[nH]c2ccccc12)NC(=O)[C@H](CCCNC(=N)N)NC(=O)[C@H](Cc1c[nH]c2ccccc12)NC(=O)[C@H](Cc1c[nH]c2ccccc12)NC(=O)[C@H](Cc1c[nH]c2ccccc12)NC(=O)[C@H](CCCNC(=N)N)NC(=O)[C@H](Cc1c[nH]c2ccccc12)NC(=O)[C@@H](N)CCCNC(=N)N)C(N)=O", "organism": "Candida albicans", "assay": "broth microdilution", "system": "CGMCC 2.209, RPMI 1640-MOPS", "setting": "48 h, 30 °C, together with: NaCl 150 mM", "MIC": "16 µM"}
